Measurements pooled from the literature.
Numbered parts are unrelated; each lists some results of a single study.
UniProt P42679, sequence (whole entry, looked up): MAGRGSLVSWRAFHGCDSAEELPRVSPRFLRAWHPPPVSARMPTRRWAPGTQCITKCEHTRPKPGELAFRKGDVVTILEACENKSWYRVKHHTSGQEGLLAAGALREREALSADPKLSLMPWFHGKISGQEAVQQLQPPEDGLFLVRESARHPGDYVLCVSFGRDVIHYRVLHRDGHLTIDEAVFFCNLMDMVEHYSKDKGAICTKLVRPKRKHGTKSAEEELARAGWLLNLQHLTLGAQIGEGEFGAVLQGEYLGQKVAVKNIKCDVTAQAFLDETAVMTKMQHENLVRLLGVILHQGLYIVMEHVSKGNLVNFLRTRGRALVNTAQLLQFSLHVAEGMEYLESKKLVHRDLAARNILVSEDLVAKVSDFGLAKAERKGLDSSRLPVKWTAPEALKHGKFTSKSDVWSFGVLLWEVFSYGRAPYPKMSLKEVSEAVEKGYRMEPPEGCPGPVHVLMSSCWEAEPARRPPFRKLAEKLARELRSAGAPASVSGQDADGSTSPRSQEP
UniProt Q9UBF8, sequence (whole entry, looked up): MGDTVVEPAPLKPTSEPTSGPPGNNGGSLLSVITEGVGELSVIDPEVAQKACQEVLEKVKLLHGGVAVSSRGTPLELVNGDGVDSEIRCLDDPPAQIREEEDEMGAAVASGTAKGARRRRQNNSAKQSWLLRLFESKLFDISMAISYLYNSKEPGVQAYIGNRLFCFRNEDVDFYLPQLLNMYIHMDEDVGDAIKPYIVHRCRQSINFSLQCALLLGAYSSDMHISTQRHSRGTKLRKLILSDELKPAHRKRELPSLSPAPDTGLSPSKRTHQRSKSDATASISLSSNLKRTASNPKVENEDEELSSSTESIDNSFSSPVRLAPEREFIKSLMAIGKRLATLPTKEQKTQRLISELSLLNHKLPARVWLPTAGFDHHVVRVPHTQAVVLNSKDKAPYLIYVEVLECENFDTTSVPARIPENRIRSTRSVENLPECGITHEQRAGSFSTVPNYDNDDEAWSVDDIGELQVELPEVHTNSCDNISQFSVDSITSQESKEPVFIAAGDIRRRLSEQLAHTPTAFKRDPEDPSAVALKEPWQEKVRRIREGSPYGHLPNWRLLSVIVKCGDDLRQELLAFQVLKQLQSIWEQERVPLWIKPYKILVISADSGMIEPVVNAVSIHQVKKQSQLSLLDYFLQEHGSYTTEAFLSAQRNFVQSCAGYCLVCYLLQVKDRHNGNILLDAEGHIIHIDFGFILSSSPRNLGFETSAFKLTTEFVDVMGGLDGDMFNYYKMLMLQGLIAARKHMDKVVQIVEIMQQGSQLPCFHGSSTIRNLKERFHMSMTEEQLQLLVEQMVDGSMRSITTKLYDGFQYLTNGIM
UniProt P54753, sequence (whole entry, looked up): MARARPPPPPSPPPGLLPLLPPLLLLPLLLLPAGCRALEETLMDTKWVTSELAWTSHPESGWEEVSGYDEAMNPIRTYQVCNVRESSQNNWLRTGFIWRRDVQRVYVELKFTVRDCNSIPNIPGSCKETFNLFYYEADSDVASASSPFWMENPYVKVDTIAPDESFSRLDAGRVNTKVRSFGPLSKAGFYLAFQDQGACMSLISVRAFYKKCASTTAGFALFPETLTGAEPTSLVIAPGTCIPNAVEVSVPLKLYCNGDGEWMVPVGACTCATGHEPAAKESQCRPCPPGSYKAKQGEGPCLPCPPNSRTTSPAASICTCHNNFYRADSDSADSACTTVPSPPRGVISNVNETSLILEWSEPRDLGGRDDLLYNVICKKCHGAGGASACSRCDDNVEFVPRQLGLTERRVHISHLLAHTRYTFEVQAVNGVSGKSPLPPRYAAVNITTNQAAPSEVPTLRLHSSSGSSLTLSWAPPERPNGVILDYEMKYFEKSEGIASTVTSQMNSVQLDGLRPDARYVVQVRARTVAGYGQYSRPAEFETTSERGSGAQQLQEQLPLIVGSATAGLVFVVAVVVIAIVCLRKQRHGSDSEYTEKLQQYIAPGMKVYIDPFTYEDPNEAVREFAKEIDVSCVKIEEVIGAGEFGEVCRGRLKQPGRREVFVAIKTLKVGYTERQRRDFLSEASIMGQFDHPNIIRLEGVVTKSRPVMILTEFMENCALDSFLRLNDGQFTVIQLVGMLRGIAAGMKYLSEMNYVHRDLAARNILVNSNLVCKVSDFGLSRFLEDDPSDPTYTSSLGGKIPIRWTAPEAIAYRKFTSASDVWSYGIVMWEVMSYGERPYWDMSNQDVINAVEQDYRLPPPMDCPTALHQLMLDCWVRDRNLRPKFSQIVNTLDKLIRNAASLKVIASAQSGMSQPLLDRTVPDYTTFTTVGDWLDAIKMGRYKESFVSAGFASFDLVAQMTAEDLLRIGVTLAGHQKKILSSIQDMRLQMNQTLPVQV
UniProt O75582, sequence (whole entry, looked up): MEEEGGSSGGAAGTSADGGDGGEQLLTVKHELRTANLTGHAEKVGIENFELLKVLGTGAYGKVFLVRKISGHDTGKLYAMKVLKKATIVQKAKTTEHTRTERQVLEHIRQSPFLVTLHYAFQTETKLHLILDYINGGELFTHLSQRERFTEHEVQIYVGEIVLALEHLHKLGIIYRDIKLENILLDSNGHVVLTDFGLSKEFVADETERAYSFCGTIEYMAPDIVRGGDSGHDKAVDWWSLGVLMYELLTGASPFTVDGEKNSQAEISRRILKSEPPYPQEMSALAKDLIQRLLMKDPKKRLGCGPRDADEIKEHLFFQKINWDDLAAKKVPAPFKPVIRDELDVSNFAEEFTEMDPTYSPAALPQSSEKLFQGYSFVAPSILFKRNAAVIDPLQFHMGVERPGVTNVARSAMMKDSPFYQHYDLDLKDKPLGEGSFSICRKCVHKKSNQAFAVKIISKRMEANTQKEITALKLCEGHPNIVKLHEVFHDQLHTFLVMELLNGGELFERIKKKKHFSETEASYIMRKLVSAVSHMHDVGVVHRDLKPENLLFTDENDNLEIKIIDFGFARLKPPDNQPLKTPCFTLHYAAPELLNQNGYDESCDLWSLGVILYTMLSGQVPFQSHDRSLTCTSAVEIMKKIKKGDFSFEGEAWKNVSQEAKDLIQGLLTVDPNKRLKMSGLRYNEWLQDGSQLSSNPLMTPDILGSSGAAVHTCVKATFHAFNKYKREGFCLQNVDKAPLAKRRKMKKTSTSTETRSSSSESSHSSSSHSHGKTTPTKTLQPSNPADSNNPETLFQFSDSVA
UniProt P35916, sequence (whole entry, looked up): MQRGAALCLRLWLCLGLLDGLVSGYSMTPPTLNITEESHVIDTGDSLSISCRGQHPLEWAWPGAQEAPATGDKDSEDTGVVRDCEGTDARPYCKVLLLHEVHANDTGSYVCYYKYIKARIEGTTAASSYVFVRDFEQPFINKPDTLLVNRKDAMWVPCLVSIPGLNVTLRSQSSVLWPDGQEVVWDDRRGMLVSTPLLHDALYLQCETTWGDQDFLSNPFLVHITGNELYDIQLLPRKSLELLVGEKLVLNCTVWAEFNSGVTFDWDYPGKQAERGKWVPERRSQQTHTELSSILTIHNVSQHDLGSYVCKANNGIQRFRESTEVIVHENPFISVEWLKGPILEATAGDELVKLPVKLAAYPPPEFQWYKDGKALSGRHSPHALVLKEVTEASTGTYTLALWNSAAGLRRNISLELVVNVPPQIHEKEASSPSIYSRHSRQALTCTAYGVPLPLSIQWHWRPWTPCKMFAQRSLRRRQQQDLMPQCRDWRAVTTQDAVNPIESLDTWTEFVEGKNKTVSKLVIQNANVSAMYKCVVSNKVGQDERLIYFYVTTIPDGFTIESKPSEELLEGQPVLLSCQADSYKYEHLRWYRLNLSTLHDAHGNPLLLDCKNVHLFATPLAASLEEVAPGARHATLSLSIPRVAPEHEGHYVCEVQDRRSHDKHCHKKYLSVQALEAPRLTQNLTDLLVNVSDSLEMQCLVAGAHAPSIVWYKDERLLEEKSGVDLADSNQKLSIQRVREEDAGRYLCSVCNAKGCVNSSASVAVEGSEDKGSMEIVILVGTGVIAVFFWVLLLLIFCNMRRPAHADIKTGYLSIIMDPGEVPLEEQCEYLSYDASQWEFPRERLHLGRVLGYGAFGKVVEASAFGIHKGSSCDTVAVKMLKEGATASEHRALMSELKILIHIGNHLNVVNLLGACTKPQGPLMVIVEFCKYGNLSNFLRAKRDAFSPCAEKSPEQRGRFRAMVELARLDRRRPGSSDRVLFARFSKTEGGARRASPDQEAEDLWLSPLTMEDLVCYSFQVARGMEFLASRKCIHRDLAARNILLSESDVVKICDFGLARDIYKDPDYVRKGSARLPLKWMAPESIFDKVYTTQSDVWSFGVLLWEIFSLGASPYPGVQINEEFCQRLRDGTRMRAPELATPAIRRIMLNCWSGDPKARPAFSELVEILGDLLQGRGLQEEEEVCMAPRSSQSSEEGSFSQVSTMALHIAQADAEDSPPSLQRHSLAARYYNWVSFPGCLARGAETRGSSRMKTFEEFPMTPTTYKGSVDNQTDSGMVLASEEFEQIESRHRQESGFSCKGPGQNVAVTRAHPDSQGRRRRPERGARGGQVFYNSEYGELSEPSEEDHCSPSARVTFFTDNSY

Study 1 — technique: universal PBM; molecule type: double-stranded DNA, one strand shown; medium: in vitro; tested at: not given; reading: higher = stronger binding
Target: Sal-like protein 4, full length isoform B (SALL4, Homo sapiens, UniProt Q9UJQ4-2, residues 1-616)
Setting: 8-mer, flanks averaged, mean of replicates
Construct (chain): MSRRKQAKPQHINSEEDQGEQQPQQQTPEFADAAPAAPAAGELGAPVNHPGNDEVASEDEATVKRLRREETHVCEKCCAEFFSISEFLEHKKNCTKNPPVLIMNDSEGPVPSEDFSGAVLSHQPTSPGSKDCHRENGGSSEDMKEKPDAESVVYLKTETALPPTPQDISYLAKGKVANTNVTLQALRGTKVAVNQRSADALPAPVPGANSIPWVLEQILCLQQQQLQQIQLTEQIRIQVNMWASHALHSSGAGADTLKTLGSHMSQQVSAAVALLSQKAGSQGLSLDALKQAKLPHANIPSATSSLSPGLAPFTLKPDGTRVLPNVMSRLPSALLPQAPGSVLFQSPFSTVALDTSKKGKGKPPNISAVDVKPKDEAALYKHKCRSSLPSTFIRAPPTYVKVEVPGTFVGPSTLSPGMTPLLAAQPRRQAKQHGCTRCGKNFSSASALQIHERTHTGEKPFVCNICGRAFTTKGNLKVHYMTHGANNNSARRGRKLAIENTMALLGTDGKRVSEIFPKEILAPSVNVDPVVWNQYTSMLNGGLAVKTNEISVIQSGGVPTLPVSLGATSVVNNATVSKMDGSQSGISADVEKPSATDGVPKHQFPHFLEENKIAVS
Oligonucleotide	E-score
CATGTGTC	-0.088
GACGACTC	-0.311
CCATAGGC	-0.183
GGACGCGA	-0.159
GGGTGTGA	-0.0412
CTAGGACC	-0.275
TATTTTGA	0.285
GTCCTTGA	-0.00719

Study 2 — technique: protein binding microarray; molecule type: double-stranded DNA, one strand shown; medium: in vitro; tested at: not given; relative to: not given; reading: higher = stronger binding
Target: Histone acetyltransferase KAT6A, winged helix 2, GST fusion (KAT6A, Homo sapiens, UniProt Q92794, residues 85-181)
Setting: 8-mer, flanks averaged, mean of 2 arrays, mostly near background
Construct (chain): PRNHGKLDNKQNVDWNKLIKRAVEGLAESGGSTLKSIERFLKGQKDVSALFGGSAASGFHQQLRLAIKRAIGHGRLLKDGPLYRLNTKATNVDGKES
Oligonucleotide	E-score
CACAGTAC	-0.00923
AGAAACGA	0.0621
CGCCGCGA	0.206
GGACCTCA	-0.0855
CGCTTTCC	0.0804
ACGAGGCG	0.19
CTCGGGGC	0.079
CCGTTTAA	-0.0427

Study 3 — tested at: 1 µM
Structure (SMILES): CS(=O)(=O)NCC[C@H](NC(=O)c1cncc2c1cnn2-c1ccc(F)cc1)c1ccnc(S(C)(=O)=O)c1
target	test	remaining binding
Phosphatidylinositol 4-kinase beta (PI4KB, Homo sapiens, UniProt Q9UBF8)	cell-free assay, competition with immobilised ligand	100%
Ephrin type-B receptor 6 (EPHB6, Homo sapiens, UniProt O15197)	cell-free assay, competition with immobilised ligand	100%
Receptor-type tyrosine-protein kinase FLT3 (FLT3, Homo sapiens, UniProt P36888, R834Q)	cell-free assay, competition with immobilised ligand	79%
Ephrin type-B receptor 3 (EPHB3, Homo sapiens, UniProt P54753)	cell-free assay, competition with immobilised ligand	100%
Macrophage colony-stimulating factor 1 receptor (CSF1R, Homo sapiens, UniProt P07333)	cell-free assay, competition with immobilised ligand	100%
Ribosomal protein S6 kinase alpha-5, C-terminal kinase domain (RPS6KA5, Homo sapiens, UniProt O75582)	cell-free assay, competition with immobilised ligand	100%
Tyrosine-protein kinase ABL1, phosphorylated (ABL1, Homo sapiens, UniProt P00519, F317I)	binding	94%
Phosphatidylinositol 4,5-bisphosphate 3-kinase catalytic subunit alpha isoform (PIK3CA, Homo sapiens, UniProt P42336, E545K)	cell-free assay, competition with immobilised ligand	78%
Megakaryocyte-associated tyrosine-protein kinase (MATK, Homo sapiens, UniProt P42679)	cell-free assay, competition with immobilised ligand	100%
Serine/threonine-protein kinase PLK3 (PLK3, Homo sapiens, UniProt Q9H4B4)	cell-free assay, competition with immobilised ligand	100%
Vascular endothelial growth factor receptor 3 (FLT4, Homo sapiens, UniProt P35916)	cell-free assay, competition with immobilised ligand	100%

Other studies, line by line
SMILES	test	system	conditions	measurement	result
CC(C)n1cnc(-c2ccc(F)cc2)c1-c1ncc(C(=O)Nc2ccc(N3CCN(C)CC3)cc2)[nH]1	phase 2a trial	idiopathic pulmonary fibrosis patients	60 mg once daily, adverse event grade 2	patients with decreased appetite	0%
